Experimental data collected from several papers.
Protocols differ between the studies behind these lines. Numbers after ± are the reported error.
UniProt P51531, sequence (whole entry, unmodified, looked up): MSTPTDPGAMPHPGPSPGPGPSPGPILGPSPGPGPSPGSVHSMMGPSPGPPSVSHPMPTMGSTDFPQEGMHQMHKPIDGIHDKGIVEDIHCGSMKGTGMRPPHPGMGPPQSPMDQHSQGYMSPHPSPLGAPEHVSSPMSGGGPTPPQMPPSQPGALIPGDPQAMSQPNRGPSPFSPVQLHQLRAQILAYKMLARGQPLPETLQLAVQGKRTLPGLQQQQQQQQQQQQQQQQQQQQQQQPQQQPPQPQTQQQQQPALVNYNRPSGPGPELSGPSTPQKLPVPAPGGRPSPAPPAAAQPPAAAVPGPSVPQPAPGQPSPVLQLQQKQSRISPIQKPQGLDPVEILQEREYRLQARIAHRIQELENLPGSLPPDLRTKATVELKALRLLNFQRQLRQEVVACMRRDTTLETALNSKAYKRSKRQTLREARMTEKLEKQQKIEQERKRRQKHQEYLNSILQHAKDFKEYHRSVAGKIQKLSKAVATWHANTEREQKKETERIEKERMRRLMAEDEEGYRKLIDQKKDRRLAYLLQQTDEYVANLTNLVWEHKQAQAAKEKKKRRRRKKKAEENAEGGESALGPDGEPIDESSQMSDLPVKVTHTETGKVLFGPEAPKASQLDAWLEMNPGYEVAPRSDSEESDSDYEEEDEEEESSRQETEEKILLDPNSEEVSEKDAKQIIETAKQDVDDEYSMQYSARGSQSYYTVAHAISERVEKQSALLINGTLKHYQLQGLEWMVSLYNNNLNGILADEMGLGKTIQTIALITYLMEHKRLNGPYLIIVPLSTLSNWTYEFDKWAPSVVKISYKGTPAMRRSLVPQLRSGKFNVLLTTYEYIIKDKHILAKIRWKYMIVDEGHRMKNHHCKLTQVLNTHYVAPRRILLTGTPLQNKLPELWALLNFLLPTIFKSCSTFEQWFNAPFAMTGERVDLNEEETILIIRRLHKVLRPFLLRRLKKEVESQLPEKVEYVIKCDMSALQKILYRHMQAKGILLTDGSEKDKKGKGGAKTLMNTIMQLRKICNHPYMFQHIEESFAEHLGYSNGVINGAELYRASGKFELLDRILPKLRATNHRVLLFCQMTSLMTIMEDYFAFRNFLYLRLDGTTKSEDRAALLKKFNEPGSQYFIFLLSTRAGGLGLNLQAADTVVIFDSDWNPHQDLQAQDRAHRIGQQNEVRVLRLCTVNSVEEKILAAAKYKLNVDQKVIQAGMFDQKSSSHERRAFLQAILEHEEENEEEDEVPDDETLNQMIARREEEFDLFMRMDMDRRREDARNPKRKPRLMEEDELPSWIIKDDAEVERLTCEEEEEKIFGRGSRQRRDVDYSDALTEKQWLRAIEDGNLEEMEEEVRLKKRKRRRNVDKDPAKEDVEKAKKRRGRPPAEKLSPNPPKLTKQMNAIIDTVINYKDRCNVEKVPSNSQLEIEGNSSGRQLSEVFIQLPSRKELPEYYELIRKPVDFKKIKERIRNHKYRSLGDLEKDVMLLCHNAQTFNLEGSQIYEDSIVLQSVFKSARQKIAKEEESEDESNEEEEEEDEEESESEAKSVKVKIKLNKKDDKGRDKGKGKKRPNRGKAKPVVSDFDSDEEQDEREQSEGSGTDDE
UniProt Q9GZQ4, sequence (whole entry, looked up): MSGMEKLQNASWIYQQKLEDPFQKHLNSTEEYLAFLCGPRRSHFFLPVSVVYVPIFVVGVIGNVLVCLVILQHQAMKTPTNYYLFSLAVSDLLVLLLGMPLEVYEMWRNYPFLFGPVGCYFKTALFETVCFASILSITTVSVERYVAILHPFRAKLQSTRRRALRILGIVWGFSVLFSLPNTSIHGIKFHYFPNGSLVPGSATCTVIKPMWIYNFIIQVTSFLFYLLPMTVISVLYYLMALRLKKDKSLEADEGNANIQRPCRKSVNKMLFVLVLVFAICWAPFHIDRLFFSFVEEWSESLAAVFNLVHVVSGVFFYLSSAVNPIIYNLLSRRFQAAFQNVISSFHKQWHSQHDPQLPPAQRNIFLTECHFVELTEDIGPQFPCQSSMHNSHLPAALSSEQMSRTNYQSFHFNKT
UniProt P29350, sequence (whole entry, looked up): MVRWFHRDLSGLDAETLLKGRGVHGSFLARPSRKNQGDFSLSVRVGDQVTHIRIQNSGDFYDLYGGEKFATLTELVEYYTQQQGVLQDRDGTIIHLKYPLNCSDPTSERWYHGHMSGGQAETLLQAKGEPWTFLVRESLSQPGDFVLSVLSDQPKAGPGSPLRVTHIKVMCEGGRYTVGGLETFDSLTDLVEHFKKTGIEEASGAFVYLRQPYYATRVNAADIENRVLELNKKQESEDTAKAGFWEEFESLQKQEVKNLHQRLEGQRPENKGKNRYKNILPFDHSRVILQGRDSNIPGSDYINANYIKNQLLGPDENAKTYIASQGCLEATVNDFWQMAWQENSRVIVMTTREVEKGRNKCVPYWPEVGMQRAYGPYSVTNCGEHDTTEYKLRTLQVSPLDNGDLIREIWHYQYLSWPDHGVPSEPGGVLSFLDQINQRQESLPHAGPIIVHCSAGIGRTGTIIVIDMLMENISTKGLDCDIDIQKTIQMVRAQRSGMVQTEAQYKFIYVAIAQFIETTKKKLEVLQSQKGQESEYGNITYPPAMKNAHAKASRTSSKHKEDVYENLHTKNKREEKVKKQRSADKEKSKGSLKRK
UniProt Q8GME2, sequence (whole entry, looked up): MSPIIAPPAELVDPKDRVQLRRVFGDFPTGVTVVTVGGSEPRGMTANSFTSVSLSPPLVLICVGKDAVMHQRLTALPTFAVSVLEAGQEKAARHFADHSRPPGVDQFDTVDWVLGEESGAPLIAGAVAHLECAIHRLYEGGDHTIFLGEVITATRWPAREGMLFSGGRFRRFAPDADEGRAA
UniProt Q15464, sequence (whole entry, looked up): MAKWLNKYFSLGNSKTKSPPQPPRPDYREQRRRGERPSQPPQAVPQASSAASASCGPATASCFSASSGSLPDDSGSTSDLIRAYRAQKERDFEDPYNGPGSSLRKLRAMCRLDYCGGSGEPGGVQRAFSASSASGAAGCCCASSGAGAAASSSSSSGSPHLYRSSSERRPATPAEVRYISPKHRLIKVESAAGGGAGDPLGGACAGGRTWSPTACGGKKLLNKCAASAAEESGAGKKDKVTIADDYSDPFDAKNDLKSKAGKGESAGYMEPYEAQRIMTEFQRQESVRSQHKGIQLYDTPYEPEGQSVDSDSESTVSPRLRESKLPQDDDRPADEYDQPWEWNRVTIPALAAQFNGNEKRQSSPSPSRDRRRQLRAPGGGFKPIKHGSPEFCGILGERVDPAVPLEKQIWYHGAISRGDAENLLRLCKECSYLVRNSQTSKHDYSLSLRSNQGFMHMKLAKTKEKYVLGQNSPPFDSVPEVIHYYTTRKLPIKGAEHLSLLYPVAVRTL
UniProt Q92973, sequence (whole entry, looked up): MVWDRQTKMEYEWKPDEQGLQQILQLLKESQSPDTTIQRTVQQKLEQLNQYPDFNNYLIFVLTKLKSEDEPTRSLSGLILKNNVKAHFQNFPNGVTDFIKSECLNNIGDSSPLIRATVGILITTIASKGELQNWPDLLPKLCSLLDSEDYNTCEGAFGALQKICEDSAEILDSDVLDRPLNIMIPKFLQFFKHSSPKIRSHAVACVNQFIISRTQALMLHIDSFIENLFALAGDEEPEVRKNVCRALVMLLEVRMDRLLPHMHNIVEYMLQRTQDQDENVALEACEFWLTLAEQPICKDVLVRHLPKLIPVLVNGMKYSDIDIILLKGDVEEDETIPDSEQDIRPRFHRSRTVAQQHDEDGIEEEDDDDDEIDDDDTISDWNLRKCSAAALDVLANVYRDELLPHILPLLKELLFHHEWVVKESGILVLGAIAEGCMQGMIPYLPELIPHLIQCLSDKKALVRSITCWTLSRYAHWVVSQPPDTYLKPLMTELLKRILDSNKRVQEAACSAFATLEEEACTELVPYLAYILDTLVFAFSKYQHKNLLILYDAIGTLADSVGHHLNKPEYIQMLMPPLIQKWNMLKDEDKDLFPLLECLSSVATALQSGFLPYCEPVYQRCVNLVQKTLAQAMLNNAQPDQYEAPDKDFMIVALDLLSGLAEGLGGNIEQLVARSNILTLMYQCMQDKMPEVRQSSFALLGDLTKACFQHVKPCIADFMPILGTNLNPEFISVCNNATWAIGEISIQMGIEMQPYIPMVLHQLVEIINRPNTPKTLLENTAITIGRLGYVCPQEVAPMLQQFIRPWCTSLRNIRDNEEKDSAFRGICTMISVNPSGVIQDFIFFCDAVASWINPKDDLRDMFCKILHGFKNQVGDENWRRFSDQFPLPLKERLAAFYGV

The DC50 of `Cc1ncsc1-c1ccc(CNC(=O)[C@@H]2C[C@@H](O)CN2C(=O)[C@@H](NC(=O)C2(F)CC2)C(C)(C)C)c(OCCOc2ccc(CN3CCN(c4cc(-c5ccccc5O)nnc4N)CC3)cc2)c1` is reported as 6.5 nM (SWI/SNF-related matrix-associated actin-dependent regulator of chromatin subfamily A member 2 (SMARCA2, Homo sapiens, UniProt P51531); degrader, immunoblot; SMARCA4-mutant lung cancer cells; 96 h, median of twelve cell lines).
For `CO/N=C1\C[C@]2(C[C@@H]3C[C@@H](C/C=C(\C)C[C@@H](C)/C=C/C=C4\CO[C@@H]5[C@H](O)C(C)=C[C@@H](C(=O)O3)[C@]45O)O2)O[C@H](/C(C)=C/C(C)C)[C@H]1C`, the IC50 was 9560 ± 3080 nM (Bile acid receptor (NR1H4, Homo sapiens, UniProt Q96RI1); receptor activity, inhibitor; cells).
With `CC[C@H](C)[C@H](NC(=O)[C@H](CC(=O)O)NC(=O)[C@H](C)NC(=O)[C@H](Cc1ccc(OP(=O)(O)O)cc1)NC(=O)[C@H](CCCCN)NC(=O)[C@@H](NC(=O)[C@H](CC(=O)O)NC(=O)CNC(=O)[C@H](CCCCN)NC(=O)[C@H](CCSC)NC(=O)[C@H](CC(=O)O)NC(=O)[C@H](CC(C)C)NC(=O)[C@H](CCSC)NC(=O)c1ccc2c(c1)C(=O)OC21c2ccc(N(C)C)cc2Oc2cc(N(C)C)ccc21)C(C)C)C(=O)N[C@@H](CCC(=O)O)C(=O)N[C@@H](CO)C(=O)N[C@@H](CO)C(=O)N[C@@H](CC(N)=O)C(=O)N[C@@H](CC(=O)O)C(=O)O` the Kd was 593 nM (Tyrosine-protein phosphatase non-receptor type 11, SH2 domains (PTPN11, Homo sapiens, UniProt Q06124); binding).
For `C[C@H]1CN(c2n[nH]c3nc(N[C@H]4CC[C@H](NS(=O)(=O)CCC(F)(F)F)CC4)ncc23)CCO1`, the IC50 was no less than 20000 nM (Transportin-1 (TNPO1, Homo sapiens, UniProt Q92973); biochemical).
For `CC[C@H](C)[C@H](NC(=O)[C@H](Cc1ccc(OP(=O)(O)O)cc1)NC(=O)[C@H](CCC(=O)O)NC(=O)[C@H](Cc1c[nH]cn1)NC(=O)CNC(=O)[C@H](CC(=O)O)NC(=O)[C@H](CO)NC(=O)[C@H](CO)NC(=O)[C@@H](NC(=O)[C@H](CO)NC(=O)[C@H](CCC(=O)O)NC(=O)c1ccc2c(c1)C(=O)OC21c2ccc(N(C)C)cc2Oc2cc(N(C)C)ccc21)C(C)C)C(=O)N[C@@H](Cc1ccc(O)cc1)C(=O)N[C@H](C(=O)N[C@@H](CC(=O)O)C(=O)N1CCC[C@H]1C(=O)N[C@@H](CCSC)C(=O)N[C@@H](CCC(N)=O)C(=O)N[C@@H](CC(=O)O)C(=O)O)C(C)C`, the Kd was 404 nM (SH2 domain-containing adapter protein B, SH2 domain (SHB, Homo sapiens, UniProt Q15464); binding).
With `COc1cc(Nc2ncc(F)c(Nc3ccc4c(n3)NC(=O)C(C)(C)O4)n2)cc(OC)c1OC` the IC50 was greater than 10000 nM (Neuromedin-U receptor 2 (NMUR2, Homo sapiens, UniProt Q9GZQ4)).
`Cc1cc2nc3c(=O)[nH]c(=O)nc-3n(C[C@H](O)[C@H](O)[C@H](O)COP(=O)(O)OP(=O)(O)OC[C@H]3O[C@@H](n4cnc5c(N)ncnc54)[C@H](O)[C@@H]3O)c2cc1C` has a Km of 8.2 ± 0.9 µM (NADH-dependent FAD reductase (sgcE6, Streptomyces globisporus, UniProt Q8GME2); substrate).
`CC[C@H](C)[C@@H]1NC(=O)[C@@H]2CCCN2C(=O)[C@H](CC(C)C)NC(=O)[C@H](CC(C)C)NC(=O)CNC(=O)[C@@H](NC(=O)[C@@H](NC(=O)[C@H](CC(=O)O)NC(=O)CNC(=O)[C@@H](NC(=O)[C@H](C)NC(=O)CNC(=O)[C@H](CCCCN)NC(=O)[C@H](CC(C)C)NC(=O)[C@H](CC(C)C)NC(=O)[C@H](CCCCN)NC(=O)CNC(=O)[C@@H](NC(=O)[C@@H](N)CC(C)C)C(C)C)C(C)C)C(C)C)CSSC[C@@H](C(=O)O)NC1=O`: “log2 fold change” -2.67 (RNA-seq, measured: Ppm1j; mouse, traumatic brain injury model, frontal cortex and hippocampus; dose not given; reference: TBI alone).
For `CC(C)C[C@H](NC(=O)[C@@H](NC(=O)[C@H](CO)NC(=O)[C@H](CO)NC(=O)[C@@H](NC(=O)[C@H](CC(=O)O)NC(=O)[C@H](CC(C)C)NC(=O)[C@@H]1CCCN1C(=O)[C@H](CO)NC(=O)c1ccc2c(c1)C(=O)OC21c2ccc(N(C)C)cc2Oc2cc(N(C)C)ccc21)[C@@H](C)O)C(C)C)C(=O)N[C@@H](Cc1ccc(OP(=O)(O)O)cc1)C(=O)N[C@H](C(=O)N[C@@H](C)C(=O)N[C@H](C(=O)N[C@@H](CCC(N)=O)C(=O)N1CCC[C@H]1C(=O)N[C@@H](CC(N)=O)C(=O)N[C@@H](CCC(=O)O)C(=O)N[C@@H](CC(=O)O)C(=O)O)C(C)C)[C@@H](C)O`, the Kd was 1090 nM (Tyrosine-protein phosphatase non-receptor type 6, SH2 domains (PTPN6, Homo sapiens, UniProt P29350); binding).
With `CC[C@H](C)[C@H](NC(=O)[C@H](CO)NC(=O)[C@H](C)NC(=O)[C@H](Cc1ccc(OP(=O)(O)O)cc1)NC(=O)[C@H](CCC(=O)O)NC(=O)[C@@H](NC(=O)[C@H](Cc1c[nH]cn1)NC(=O)[C@H](CC(N)=O)NC(=O)[C@H](CC(N)=O)NC(=O)[C@@H]1CCCN1C(=O)[C@H](CCC(=O)O)NC(=O)[C@H](C)NC(=O)[C@H](C)NC(=O)[C@H](CCC(N)=O)NC(=O)[C@@H]1CCCN1C(=O)[C@H](C)NC(=O)[C@@H]1CCCN1C(=O)[C@H](CCCCN)NC(=O)[C@H](CCCCN)NC(=O)CNC(=O)[C@H](CCCCN)NC(=O)[C@@H]1CCCN1C(=O)[C@H](CC(C)C)NC(=O)[C@H](CC(N)=O)NC(=O)[C@H](CC(C)C)NC(=O)[C@H](CC(=O)O)NC(=O)[C@H](C)NC(=O)[C@H](Cc1ccc(OP(=O)(O)O)cc1)NC(=O)[C@@H](NC(=O)[C@@H](NC(=O)[C@@H](N)CC(=O)O)[C@@H](C)CC)[C@@H](C)O)[C@@H](C)O)C(=O)N[C@@H](CCC(N)=O)C(=O)N[C@H](C(=O)N[C@@H](CO)C(=O)O)[C@@H](C)O` the EC50 was 237 ± 4 nM (Tyrosine-protein phosphatase non-receptor type 11 (PTPN11, Homo sapiens, UniProt Q06124, R111A); enzyme activity, activator; pH 7.0, 0.2% DMSO, added: DiFMUP 100 µM, phosphopeptide).
For `O=C(O)c1ccccc1Nc1cccc(C(F)(F)F)c1`, the EC50 was 270000 nM (BK channel alpha subunit (Cavia porcellus, UniProt A0A286XP95); delayed rectifier K+ current, activator; dispersed vascular smooth muscle cells, guinea pig, AICA arteriole; at +40 mV).

A few entries again:
With `COc1cc(Nc2ncc(F)c(Nc3ccc4c(n3)NC(=O)C(C)(C)O4)n2)cc(OC)c1OC` the IC50 was greater than 10000 nM (Neuromedin-U receptor 2 (NMUR2, Homo sapiens, UniProt Q9GZQ4)).
